Measured values from different studies.
Compare with care: the assays were run in different laboratories. Values joined by “and” are separate records of one study, mostly repeats; a detail may differ.
TAGLN: Transgelin (TAGLN, Homo sapiens, UniProt Q01995)
Chain of UniProt Q01995 (whole entry, looked up): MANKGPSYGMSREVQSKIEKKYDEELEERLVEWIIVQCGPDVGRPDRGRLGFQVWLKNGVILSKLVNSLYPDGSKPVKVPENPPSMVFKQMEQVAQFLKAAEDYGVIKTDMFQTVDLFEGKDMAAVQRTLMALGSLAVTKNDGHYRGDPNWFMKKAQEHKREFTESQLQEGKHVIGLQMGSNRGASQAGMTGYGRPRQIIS
VHL/BRD9: VHL/BRD9 (Homo sapiens, UniProt P40337+Q9H8M2)
Chain of UniProt Q9SZU7 (whole entry, unmodified, looked up): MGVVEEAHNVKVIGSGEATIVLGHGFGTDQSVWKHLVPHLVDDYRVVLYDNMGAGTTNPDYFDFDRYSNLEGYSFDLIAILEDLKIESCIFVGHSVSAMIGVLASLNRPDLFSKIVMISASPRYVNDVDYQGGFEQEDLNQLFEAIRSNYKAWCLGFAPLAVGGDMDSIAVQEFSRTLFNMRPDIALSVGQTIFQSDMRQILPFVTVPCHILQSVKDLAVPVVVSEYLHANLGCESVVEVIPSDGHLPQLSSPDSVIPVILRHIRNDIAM
Chain of UniProt P08191 (whole entry, looked up): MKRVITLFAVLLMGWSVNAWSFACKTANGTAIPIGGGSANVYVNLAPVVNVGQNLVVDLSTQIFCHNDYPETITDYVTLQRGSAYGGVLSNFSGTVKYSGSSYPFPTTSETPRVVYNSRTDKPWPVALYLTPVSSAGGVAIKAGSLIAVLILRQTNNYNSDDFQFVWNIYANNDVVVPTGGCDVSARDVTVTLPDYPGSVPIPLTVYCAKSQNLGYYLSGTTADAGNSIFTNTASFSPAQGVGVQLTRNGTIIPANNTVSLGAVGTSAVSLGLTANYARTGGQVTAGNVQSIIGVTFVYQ
Chain of UniProt Q9H8M2 (whole entry, looked up): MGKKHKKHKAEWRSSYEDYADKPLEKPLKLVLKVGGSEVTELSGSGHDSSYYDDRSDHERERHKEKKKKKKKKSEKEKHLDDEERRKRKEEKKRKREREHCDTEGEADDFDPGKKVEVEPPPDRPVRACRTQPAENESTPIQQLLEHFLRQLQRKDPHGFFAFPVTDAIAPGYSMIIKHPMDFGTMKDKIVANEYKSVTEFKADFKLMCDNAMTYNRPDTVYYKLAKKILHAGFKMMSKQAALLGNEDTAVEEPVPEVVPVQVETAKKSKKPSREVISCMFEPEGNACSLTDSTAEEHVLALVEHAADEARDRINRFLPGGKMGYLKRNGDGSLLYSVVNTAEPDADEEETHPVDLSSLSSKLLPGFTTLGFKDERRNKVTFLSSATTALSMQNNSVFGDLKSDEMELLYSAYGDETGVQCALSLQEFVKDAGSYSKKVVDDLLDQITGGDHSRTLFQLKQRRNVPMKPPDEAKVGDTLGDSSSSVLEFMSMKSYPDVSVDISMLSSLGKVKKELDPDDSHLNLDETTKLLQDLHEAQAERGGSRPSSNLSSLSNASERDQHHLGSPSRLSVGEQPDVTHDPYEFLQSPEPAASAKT
Chain of UniProt P40337 (whole entry, looked up): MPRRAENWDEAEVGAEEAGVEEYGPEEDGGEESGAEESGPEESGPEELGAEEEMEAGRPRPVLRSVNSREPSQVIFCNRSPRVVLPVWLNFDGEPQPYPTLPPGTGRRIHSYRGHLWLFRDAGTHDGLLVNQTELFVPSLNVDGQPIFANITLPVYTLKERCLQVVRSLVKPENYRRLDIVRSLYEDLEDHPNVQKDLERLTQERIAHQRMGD
Chain of UniProt Q96P20 (whole entry, looked up): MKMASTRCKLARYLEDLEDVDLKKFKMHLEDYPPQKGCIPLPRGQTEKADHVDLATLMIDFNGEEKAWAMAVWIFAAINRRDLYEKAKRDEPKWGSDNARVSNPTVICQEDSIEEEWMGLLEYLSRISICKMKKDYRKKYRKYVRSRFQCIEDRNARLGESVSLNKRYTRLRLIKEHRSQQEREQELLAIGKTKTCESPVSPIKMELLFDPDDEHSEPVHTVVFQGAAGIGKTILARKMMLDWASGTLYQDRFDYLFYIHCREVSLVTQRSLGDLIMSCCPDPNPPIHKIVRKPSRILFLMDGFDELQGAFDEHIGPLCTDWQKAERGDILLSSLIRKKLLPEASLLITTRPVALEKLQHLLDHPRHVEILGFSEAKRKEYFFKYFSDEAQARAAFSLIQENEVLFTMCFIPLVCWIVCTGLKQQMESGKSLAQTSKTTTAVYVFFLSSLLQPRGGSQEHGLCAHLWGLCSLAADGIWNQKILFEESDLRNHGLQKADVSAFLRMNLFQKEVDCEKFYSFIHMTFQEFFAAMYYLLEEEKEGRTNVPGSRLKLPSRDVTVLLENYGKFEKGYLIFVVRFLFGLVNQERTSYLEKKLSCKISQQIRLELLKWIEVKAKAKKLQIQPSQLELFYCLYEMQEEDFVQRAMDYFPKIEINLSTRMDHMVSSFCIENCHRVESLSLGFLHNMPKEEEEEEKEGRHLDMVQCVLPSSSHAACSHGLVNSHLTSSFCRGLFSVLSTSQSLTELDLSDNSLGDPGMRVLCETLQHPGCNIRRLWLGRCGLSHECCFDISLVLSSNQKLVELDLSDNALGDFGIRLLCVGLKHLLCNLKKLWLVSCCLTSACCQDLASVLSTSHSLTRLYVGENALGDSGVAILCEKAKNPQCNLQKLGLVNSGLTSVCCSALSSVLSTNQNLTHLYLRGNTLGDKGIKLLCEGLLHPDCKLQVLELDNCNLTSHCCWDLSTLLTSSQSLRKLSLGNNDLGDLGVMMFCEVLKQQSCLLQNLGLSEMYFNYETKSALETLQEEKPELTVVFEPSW
Chain of UniProt Q05655 (whole entry, looked up): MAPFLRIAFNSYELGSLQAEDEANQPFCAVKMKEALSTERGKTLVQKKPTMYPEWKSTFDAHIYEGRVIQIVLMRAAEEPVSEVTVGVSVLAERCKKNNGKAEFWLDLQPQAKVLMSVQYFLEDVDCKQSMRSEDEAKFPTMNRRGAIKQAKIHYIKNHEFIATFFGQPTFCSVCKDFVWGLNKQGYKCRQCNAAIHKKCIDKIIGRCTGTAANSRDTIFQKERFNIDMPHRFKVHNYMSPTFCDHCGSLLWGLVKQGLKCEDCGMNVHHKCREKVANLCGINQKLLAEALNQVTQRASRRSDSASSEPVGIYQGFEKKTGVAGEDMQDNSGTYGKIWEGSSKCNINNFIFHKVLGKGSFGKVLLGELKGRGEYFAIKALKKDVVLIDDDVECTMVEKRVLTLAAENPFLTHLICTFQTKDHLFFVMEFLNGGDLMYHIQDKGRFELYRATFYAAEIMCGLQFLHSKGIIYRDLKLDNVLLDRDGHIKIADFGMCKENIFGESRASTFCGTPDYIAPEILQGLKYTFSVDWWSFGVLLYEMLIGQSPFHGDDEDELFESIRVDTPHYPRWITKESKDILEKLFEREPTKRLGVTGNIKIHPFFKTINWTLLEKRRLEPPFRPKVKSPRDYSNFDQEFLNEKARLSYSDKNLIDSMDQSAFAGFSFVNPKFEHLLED
Chain of UniProt Q9H4M9 (whole entry, looked up): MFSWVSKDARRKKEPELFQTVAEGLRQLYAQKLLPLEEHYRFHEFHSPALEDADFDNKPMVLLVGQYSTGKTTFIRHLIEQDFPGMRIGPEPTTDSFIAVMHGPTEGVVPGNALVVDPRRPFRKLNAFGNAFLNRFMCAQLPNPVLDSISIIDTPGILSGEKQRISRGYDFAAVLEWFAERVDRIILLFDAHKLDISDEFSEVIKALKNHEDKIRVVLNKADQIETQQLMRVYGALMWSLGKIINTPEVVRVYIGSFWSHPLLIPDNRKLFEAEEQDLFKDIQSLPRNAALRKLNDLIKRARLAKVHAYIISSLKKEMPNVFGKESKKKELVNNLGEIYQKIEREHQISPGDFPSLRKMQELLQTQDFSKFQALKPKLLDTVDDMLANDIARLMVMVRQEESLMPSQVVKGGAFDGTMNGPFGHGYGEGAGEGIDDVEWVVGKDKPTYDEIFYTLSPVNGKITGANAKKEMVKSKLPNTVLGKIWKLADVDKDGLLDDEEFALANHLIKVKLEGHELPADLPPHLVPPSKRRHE
Chain of UniProt P36969 (whole entry, looked up): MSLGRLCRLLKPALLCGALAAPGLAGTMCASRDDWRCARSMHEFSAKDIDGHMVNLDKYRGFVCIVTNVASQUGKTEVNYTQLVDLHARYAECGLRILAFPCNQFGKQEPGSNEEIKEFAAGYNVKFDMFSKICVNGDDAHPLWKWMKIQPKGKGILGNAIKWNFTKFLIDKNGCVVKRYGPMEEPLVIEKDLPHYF
Chain of UniProt Q8WXI4 (whole entry, looked up): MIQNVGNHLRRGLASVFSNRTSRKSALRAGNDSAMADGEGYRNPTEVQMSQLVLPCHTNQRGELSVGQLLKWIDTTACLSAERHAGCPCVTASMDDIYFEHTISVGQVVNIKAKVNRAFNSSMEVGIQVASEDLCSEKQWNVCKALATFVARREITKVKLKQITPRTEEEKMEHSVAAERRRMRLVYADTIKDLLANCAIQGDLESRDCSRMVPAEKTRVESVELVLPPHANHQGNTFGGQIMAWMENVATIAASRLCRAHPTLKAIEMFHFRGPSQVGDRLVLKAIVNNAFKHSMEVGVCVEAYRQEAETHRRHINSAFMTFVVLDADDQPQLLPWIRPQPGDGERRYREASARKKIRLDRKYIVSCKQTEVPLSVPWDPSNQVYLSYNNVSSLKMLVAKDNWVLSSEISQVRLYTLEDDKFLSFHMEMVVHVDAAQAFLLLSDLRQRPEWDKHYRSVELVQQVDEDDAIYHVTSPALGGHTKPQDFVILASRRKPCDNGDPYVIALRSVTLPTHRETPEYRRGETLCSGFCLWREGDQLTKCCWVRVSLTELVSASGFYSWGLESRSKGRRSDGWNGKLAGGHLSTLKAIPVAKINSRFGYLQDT

`CCOC(=O)C(CCNC(=O)/C=C/c1ccc(O)c(O)c1/C=C/c1ccc(O)c(O)c1)Cc1ccccc1` (stereo not drawn) has a Kd of 1350 µM (TAGLN; binding, surface plasmon resonance).
`Cc1ncc(CNc2nc(N3CC(CCOc4cc(-c5scnc5C)ccc4CNC(=O)[C@@H]4C[C@@H](O)CN4C(=O)[C@@H](NC(=O)C4(F)CC4)C(C)(C)C)C3)nc(N3CCC[C@H]3Cn3ccnn3)n2)c(N)n1` gave a Kd of 0.909 µM (VHL/BRD9; ternary binding, SPR; added: VCB at 2 µM).
`O=C(Nc1cccc(Cl)c1)c1ccc(=O)[nH]c1` gave a Kd of over 400 µM (GPX4 (Homo sapiens, UniProt P36969); binder, HSQC NMR titration; DLPC/DPC micelles).
For `CC(=O)NCC1CCCCN1c1nc(NCC2Cc3ccccc3O2)nc(N2CC3C(CCOc4cc(-c5scnc5C)ccc4CNC(=O)C4CC(O)CN4C(=O)C(NC(=O)C4(F)CC4)C(C)(C)C)C3C2)n1` (stereo not drawn), the Kd was 0.538 µM (VHL/BRD9; ternary binding, SPR; added: VCB at 2 µM).
With `O=C(NS(=O)(=O)c1cccs1)c1cc2ccccc2n1Cc1ccc(Br)c2ccccc12` the Kd was 27.8 µM (NLRP3 (Homo sapiens, UniProt Q96P20); binding, SPR).
With `CCCCCCCO[C@H]1[C@H](OC)O[C@H](CO)[C@@H](O)[C@H](O)[C@@H]1O` the Kd was 2.15 µM and 2.29 µM (Type 1 fimbrin D-mannose specific adhesin, lectin domain (fimH, Escherichia coli K-12, UniProt P08191); binding, isothermal titration calorimetry; 25 °C, individual titrations).
For `CCOC(=O)C(CCCCNC(=O)/C=C/c1ccc(O)c(O)c1/C=C/c1ccc(O)c(O)c1)Cc1cccc(O)c1` (stereo not drawn), the Kd was 77.3 µM (TAGLN; binding, surface plasmon resonance).
With `NC(=O)C[C@@H]1NC(=O)[C@H](Cc2ccc(O)cc2)NC(=O)CNC(=O)CNC(=O)[C@H](CCC(=O)O)NC(=O)[C@H](CCC(=O)O)NC(=O)[C@H](Cc2ccccc2)NC(=O)[C@@H]2CCCN2C1=O` the Kd was 2.5 µM (EH domain-containing protein 1 (Homo sapiens, UniProt Q9H4M9); binding, ITC).
`CC(=O)N[C@@H](CCC(=O)O)C(=O)N[C@@H](CCC(=O)O)C(=O)N[C@@H](CC(C)C)C(=O)N[C@@H](CC(C)C)C(=O)N[C@@H](CCCNC(=N)N)C(=O)N[C@@H](C)C(=O)N[C@@H](CC(C)C)C(=O)N[C@@H](CC(=O)O)C(=O)N[C@@H](CCC(N)=O)C(=O)N[C@H](C(=O)O)C(C)C` gave a Kd of over 10 µM (Histone acetyltransferase p300, CH1 domain (EP300, Homo sapiens, UniProt Q09472); binding, fluorescence polarization; added: FITC-labelled HIF-1α mimic).
With `Cc1c[nH]c2nccc(-c3ccc(C(=O)N[C@@H]4c5c(F)cc(C(F)F)cc5C[C@@H]4O)cn3)c12` the Kd was 0.58 µM (PRKCD (Homo sapiens, UniProt Q05655); binding, competition with immobilised ligand).
For `Cc1cccc2c1N(C(=O)n1ccnn1)CC2`, the Kd was 2440 µM and 1980 µM (KAI2 (Arabidopsis thaliana, UniProt Q9SZU7, S95A); ITC; S95A mutant).
With `CCOC(=O)N1CCN(C(c2cccs2)c2c(C)n(C)c3ccccc23)CC1` (stereo not drawn) the Kd was 3.56 µM (Acyl-coenzyme A thioesterase 11, START domain (ACOT11, Homo sapiens, UniProt Q8WXI4); binding, microscale thermophoresis).
For `NCCC(=O)O`, Kd read “no binding” (SLC6A6 (Homo sapiens, UniProt P31641, Y138A)).
`CCOC(=O)C(CCNC(=O)CCc1ccc(O)c(O)c1CCc1ccc(O)c(O)c1)Cc1ccccc1` (stereo not drawn) gave a Kd of 742 µM (TAGLN; binding, surface plasmon resonance).
With `COc1ccc(C(=O)NO)cc1NC(=O)c1ccc(-c2ccccc2)cc1` the Kd was over 30.2 µM (ALDH2 (Homo sapiens, UniProt P05091); inhibitor, competition pulldown; SW620 and MV4-11 lysate; 1 h).

Some of these lines once more:
For `Cc1cccc2c1N(C(=O)n1ccnn1)CC2`, the Kd was 2440 µM and 1980 µM (KAI2 (Arabidopsis thaliana, UniProt Q9SZU7, S95A); ITC; S95A mutant).
For `CCOC(=O)C(CCCCNC(=O)/C=C/c1ccc(O)c(O)c1/C=C/c1ccc(O)c(O)c1)Cc1cccc(O)c1` (stereo not drawn), the Kd was 77.3 µM (TAGLN; binding, surface plasmon resonance).
